Experimental data pooled from the literature.
TMPRSS2: Transmembrane protease serine 2 (TMPRSS2, Homo sapiens, UniProt O15393)
Sequence of UniProt O15393 (whole entry, looked up): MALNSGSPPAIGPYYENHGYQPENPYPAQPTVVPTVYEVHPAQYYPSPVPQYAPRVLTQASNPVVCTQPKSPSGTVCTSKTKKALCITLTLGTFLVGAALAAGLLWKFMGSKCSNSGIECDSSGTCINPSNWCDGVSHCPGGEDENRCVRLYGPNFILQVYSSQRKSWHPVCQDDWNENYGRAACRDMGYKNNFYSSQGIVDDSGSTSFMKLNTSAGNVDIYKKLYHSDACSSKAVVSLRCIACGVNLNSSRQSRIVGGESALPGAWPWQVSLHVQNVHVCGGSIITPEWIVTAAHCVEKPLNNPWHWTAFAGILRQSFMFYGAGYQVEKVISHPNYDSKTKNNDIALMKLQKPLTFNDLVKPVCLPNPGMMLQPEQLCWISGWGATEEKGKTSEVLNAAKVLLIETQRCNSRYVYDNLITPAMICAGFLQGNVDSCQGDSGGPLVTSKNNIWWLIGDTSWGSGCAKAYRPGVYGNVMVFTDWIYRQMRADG
CTSL: Procathepsin L (CTSL, Homo sapiens, UniProt P07711)
Sequence of UniProt P07711 (whole entry, looked up): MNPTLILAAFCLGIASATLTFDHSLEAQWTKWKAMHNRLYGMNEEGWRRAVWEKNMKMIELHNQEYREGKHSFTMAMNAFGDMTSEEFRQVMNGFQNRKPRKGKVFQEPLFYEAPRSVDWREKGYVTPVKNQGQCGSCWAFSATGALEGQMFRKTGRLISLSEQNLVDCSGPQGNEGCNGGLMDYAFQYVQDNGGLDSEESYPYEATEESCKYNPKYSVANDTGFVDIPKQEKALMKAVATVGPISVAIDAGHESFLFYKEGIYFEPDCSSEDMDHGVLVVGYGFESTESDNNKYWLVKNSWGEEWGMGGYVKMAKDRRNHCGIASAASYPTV
Sequence of UniProt P29322 (whole entry, looked up): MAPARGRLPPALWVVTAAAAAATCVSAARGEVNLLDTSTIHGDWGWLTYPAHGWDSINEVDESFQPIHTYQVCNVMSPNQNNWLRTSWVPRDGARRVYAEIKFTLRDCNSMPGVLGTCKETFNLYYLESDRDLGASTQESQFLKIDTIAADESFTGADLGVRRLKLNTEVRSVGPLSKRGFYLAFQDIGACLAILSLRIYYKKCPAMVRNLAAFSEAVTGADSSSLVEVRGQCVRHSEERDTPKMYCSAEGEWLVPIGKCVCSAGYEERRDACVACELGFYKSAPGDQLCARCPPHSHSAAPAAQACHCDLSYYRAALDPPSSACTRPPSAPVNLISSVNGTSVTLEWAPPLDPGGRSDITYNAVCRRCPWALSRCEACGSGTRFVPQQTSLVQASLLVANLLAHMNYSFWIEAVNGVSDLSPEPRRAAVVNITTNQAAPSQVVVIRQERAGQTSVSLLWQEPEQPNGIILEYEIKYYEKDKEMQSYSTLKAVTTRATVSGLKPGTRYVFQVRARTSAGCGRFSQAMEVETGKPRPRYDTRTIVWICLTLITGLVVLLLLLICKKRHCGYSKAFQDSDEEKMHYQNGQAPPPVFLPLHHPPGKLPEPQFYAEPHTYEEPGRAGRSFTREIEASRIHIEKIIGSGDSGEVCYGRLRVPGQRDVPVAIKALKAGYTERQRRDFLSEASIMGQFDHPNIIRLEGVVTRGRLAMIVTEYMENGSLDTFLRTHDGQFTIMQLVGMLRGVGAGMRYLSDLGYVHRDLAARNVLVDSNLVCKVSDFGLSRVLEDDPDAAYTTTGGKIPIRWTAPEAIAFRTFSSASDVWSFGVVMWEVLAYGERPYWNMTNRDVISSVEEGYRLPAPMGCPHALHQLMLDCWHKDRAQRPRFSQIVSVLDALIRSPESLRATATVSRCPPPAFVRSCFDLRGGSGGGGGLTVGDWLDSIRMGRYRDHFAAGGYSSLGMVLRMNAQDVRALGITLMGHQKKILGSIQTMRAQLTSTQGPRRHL
Sequence of UniProt P31749 (whole entry, looked up): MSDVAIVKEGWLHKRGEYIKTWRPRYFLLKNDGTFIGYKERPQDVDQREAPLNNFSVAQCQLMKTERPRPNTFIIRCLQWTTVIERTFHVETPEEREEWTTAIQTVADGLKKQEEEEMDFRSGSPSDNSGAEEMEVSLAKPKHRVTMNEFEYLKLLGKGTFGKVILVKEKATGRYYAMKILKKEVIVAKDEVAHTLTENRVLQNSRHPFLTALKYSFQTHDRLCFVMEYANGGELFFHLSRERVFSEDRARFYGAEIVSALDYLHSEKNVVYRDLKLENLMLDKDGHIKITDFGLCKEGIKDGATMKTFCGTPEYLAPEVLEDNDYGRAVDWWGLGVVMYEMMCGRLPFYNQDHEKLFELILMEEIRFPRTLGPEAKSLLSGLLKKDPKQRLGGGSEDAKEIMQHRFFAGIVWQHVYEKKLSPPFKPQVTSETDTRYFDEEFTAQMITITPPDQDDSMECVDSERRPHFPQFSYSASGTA
Sequence of UniProt P42338 (whole entry, looked up): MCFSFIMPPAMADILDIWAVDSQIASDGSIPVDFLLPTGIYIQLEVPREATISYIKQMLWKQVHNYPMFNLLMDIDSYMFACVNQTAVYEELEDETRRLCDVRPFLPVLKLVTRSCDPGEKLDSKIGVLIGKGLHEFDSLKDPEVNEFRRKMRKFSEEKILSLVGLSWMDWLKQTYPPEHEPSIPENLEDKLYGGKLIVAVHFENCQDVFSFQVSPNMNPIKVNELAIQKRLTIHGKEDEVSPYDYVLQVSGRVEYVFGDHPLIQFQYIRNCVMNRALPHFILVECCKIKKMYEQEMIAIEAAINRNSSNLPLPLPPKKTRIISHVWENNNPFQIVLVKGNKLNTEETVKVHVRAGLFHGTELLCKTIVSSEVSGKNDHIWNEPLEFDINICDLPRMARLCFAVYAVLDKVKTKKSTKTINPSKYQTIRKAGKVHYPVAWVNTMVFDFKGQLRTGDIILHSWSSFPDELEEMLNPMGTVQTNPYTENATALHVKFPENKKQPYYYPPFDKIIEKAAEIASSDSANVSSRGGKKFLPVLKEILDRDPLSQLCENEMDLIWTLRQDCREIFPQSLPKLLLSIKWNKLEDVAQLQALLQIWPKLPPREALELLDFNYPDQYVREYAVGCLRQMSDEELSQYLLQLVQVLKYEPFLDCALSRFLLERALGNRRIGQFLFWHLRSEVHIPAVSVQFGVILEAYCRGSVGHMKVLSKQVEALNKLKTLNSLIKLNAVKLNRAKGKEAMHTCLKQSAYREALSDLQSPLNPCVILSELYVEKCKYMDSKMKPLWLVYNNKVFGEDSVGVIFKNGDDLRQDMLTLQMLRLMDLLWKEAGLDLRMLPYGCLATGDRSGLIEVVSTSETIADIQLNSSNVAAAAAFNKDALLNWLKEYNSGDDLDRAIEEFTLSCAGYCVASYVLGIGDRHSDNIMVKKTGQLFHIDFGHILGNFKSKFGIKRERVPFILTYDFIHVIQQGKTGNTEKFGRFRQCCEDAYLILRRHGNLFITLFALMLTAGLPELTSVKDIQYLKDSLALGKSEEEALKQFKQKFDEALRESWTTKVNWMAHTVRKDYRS
Sequence of UniProt P53341 (whole entry, looked up): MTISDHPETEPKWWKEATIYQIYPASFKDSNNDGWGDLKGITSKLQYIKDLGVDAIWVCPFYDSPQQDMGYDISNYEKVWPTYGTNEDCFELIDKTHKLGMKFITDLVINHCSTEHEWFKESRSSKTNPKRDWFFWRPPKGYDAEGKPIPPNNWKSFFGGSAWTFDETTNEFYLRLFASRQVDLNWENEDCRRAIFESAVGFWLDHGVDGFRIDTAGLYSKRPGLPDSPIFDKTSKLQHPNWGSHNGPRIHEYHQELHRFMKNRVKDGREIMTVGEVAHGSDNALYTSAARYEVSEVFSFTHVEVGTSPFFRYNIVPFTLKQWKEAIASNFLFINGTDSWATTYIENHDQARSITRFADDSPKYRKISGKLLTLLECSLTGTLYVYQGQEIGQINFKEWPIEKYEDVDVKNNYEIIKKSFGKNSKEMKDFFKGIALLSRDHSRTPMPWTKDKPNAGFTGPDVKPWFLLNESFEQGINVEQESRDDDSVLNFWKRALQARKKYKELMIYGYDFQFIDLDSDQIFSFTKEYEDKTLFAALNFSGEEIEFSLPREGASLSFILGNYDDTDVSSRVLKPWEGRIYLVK
Sequence of UniProt P35367 (whole entry, looked up): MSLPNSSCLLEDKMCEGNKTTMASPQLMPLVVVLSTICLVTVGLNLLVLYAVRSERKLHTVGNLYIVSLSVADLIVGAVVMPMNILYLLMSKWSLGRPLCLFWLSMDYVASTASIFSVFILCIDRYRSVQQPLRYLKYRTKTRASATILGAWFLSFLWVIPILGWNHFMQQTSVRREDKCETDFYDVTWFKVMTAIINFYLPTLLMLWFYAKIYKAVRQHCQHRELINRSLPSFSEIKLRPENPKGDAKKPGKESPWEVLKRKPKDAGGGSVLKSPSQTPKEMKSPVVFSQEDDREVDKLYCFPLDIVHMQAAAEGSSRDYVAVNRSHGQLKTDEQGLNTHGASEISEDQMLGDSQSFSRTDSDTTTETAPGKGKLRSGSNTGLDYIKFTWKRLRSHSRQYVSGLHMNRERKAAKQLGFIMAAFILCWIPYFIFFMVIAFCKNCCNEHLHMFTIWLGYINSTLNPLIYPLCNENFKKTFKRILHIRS
Sequence of UniProt P21917 (whole entry, looked up): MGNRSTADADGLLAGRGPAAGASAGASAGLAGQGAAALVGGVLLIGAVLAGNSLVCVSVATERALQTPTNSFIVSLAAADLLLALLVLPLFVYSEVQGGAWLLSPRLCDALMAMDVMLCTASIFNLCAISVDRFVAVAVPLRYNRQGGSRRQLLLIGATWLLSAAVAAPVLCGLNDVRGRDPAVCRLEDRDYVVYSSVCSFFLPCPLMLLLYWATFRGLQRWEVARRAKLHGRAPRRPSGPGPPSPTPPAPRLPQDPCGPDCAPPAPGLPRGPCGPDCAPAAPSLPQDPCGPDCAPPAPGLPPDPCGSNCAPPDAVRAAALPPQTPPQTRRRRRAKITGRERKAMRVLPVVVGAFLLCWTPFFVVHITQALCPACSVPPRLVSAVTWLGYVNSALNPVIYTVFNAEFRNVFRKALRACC

SMILES	tested on	assay	test system	conditions	quantity	result
CCC(C)[C@H](N)C(=O)N[C@@H](CCC(N)=O)C(=O)N[C@@H](CO)C(=O)N[C@@H](CCCNC(=N)N)C(=O)c1nc2ccccc2s1 (stereo partly drawn)	TMPRSS2	enzyme activity, inhibitor		1 nM	activity vs control	99%
c1ccc2c(c1)sc1ccccc12	CTSL	enzyme activity, inhibitor		100 µM	remaining activity	86.3%
N.N.[Cl][Pt][Cl]	P3HR-1	cell growth or viability, ATP luminescence		10 µM, 72 h	inhibition	89%
c1cncc([C@@H]2CCCN2)c1	D(4) dopamine receptor (DRD4, Homo sapiens, UniProt P21917)	ligand displacement		50 µM	inhibition	0.78%
COCCC(=O)N[C@@H](CCC(N)=O)C(=O)N[C@@H](Cc1ccccc1)C(=O)N[C@H](CCCNC(=N)N)C(=O)c1nc2ccccc2s1	TMPRSS2	enzyme activity, inhibitor		1 nM	activity vs control	27%
COc1cc(CCNC(C)c2ccccc2O)c(OC)cc1C#N (stereo not drawn)	5-hydroxytryptamine receptor 2C (Htr2c, Mus musculus, UniProt P34968)	G protein activation, agonist, BRET			EC50	0.21 µM
CC(C)[C@H](NC(=O)[C@H](Cc1ccc(O)cc1)NC(=O)CCc1ccccc1)C(=O)N[C@@H](CCCNC(=N)N)C(=O)c1nc2ccccc2s1	TMPRSS2	enzyme activity, inhibitor		1 nM	activity vs control	86%
CC(C)CC(=O)OC[C@H]1O[C@@](C#N)(c2ccc3c(N)ncnn23)[C@H](O)[C@@H]1O	Histamine H1 receptor (HRH1, Homo sapiens, UniProt P35367)	cell-free assay		20 µM	inhibition	-5%
NC(=O)C1=CN([C@@H]2O[C@H](COP(=O)(O)OP(=O)(O)OC[C@H]3O[C@@H](n4cnc5c(N)ncnc54)[C@H](OP(=O)(O)O)[C@@H]3O)[C@@H](O)[C@H]2O)C=CC1	Dihydrofolate reductase (DHFR, Homo sapiens, UniProt P00374)	enzyme activity, substrate, absorbance			Km	10.7 µM
COC(=O)c1cc(-c2cccc(NC(=O)Nc3ccc(OC)cc3)c2)on1	Mycolicibacterium fortuitum	microbial growth, broth dilution	ATCC6841	48 h	MIC	> 64 mg/L
COc1cnc(OC)n2nc(NS(=O)(=O)c3c(OCC(F)F)cccc3C(F)(F)F)nc12	L02	cell growth or viability, CCK-8		12.5 µM, 72 h	inhibition	0.77%
C[C@]12CC[C@H]3[C@@H](CC=C4CC(O)CC[C@@]43CO)[C@@H]1CCC2O (stereo partly drawn)			rat, plasma	intraperitoneal, 20 mg/kg	bioavailability	70.8%
CC[C@@H](C)[C@@H](NC(=O)[C@H](CCc1ccccc1)NC(=O)CCc1ccccc1)C(=O)N[C@@H](CCCNC(=N)N)C(=O)c1nc2ccccc2s1	TMPRSS2	enzyme activity, inhibitor		1 nM	activity vs control	92%
Nc1ncc(-c2nc(N3CCOCC3)nc(N3CCOCC3)n2)c(C(F)F)n1	Homeodomain-interacting protein kinase 3 (HIPK3, Homo sapiens, UniProt Q9H422)	binding, competition with immobilised ligand		10 µM	remaining binding	56%
CN1C(=S)N(c2ccccc2)C(=O)/C1=C1/C(=O)N(C)c2ccc(Cl)cc21	Alpha-glucosidase MAL12 (MAL12, Saccharomyces cerevisiae S288c, UniProt P53341)	enzyme activity, inhibitor, absorbance		50 µM	inhibition	21.5%
Cc1nn(C)cc1-c1nc2c(N3CCN(Cc4ccc(Cl)cc4)CC3)c(Cl)cnc2[nH]1	Mast/stem cell growth factor receptor Kit (KIT, Homo sapiens, UniProt P10721, V559D/V654A)	binding, competition with immobilised ligand		1 µM	remaining binding	83%
CC(C)C[C@H](NC(=O)[C@H](Cc1ccccc1)NC(=O)[C@H](Cc1ccccc1)NC(=O)Cc1ccc(-c2ccccc2)cc1)C(=O)N[C@@H](CCCCN)C(=O)N[C@@H](CCCNC(=N)N)C(=O)N[C@H](C(=O)N[C@@H](Cc1c[nH]c2ccccc12)C(=O)N[C@@H](CCCCN)C(=O)N[C@@H](CCCNC(=N)N)C(=O)O)C(C)C		metabolic stability, mass spectrometry	mouse, liver microsomes	5 min	compound remaining	42.4%
CC[C@H](C)[C@H](NC(=O)[C@H](Cc1ccccc1)NC(=O)[C@H](CCC(=O)O)NC(=O)[C@H](CCCNC(=N)N)NC(=O)[C@H](C)NC(=O)[C@H](C)NC(=O)[C@H](CCC(N)=O)NC(=O)[C@H](CCC(=O)O)NC(=O)[C@H](CCC(=O)O)NC(=O)[C@H](CC(C)C)NC(=O)[C@H](Cc1ccc(O)cc1)NC(=O)[C@H](CO)NC(=O)[C@H](CO)NC(=O)[C@@H](NC(=O)[C@H](CC(=O)O)NC(=O)[C@H](CO)NC(=O)[C@@H](NC(=O)[C@H](Cc1ccccc1)NC(=O)[C@@H](NC(=O)CNC(=O)[C@H](CCC(=O)O)NC(=O)[C@H](C)NC(=O)CCc1c[nH]cn1)[C@@H](C)O)[C@@H](C)O)C(C)C)C(=O)N[C@@H](C)C(=O)N[C@@H](Cc1c[nH]c2ccccc12)C(=O)N[C@@H](CC(C)C)C(=O)N[C@H](C(=O)N[C@@H](CCCNC(=N)N)C(=O)NCC(=O)N[C@@H](CCCNC(=N)N)C(=O)N[C@@H](CCCCNC(=O)COCCOCCNC(=O)COCCOCCNC(=O)CC[C@H](NC(=O)CCCCCCCCCCCCCCCCC(=O)O)C(=O)O)C(=O)NCC(=O)NCC(=O)N[C@@H](CO)C(=O)N[C@@H](CCCCNc1c(NCCCCCN(O)C(=O)CCC(=O)NCCCCCN(O)C(=O)CCC(=O)NCCCCCN(O)C(C)=O)c(=O)c1=O)C(=O)O)C(C)C			rat, plasma	subcutaneous, 20 nmol/kg	Tmax	8 h
COc1ncccc1-c1cnn2ccc(N3CCN(C(=O)OC(C)C)CC3)nc12	Phosphatidylinositol 4,5-bisphosphate 3-kinase catalytic subunit beta isoform (PIK3CB, Homo sapiens, UniProt P42338)	binding, competition with immobilised ligand		1 µM	remaining binding	100%
[2H]c1c([2H])c([C@]2([2H])CCCN2C(=O)C(C)(C)Oc2ccc3cn[nH]c3c2)c([2H])c([2H])c1C([2H])([2H])[2H]	Ephrin type-A receptor 8 (EPHA8, Homo sapiens, UniProt P29322)	binding, competition with immobilised ligand		1 µM	remaining binding	67%
C[C@H](NC(=O)[C@H](CCC(N)=O)NC(=O)[C@H](CCCNC(=N)N)NS(C)(=O)=O)C(=O)N[C@@H](CCCNC(=N)N)C(=O)c1nc2ccccc2s1	TMPRSS2	enzyme activity, inhibitor		1 nM	activity vs control	85%
Nc1c2c(nc3c1C(c1cccc([N+](=O)[O-])c1)c1ccc(OCC(=O)c4ccc(Cl)cc4)cc1O3)CCCC2 (stereo not drawn)	SH-SY5Y	cell growth or viability, MTT		25 µM	viability	52.8%
NCCc1c[nH]c2ccc(O)cc12	CTSL	enzyme activity, inhibitor		100 µM	remaining activity	44.2%
C#Cc1n[nH]c2c(-c3cn([C@@H](C)c4ccccn4)c(=O)[nH]c3=O)cc(F)cc12	RAC-alpha serine/threonine-protein kinase (AKT1, Homo sapiens, UniProt P31749)	enzyme activity, inhibitor		0.1 µM	inhibition	0.9%

Excerpt of the above:
SMILES	tested on	assay	test system	conditions	quantity	result
Nc1ncc(-c2nc(N3CCOCC3)nc(N3CCOCC3)n2)c(C(F)F)n1	Homeodomain-interacting protein kinase 3 (HIPK3, Homo sapiens, UniProt Q9H422)	binding, competition with immobilised ligand		10 µM	remaining binding	56%
CC[C@H](C)[C@H](NC(=O)[C@H](Cc1ccccc1)NC(=O)[C@H](CCC(=O)O)NC(=O)[C@H](CCCNC(=N)N)NC(=O)[C@H](C)NC(=O)[C@H](C)NC(=O)[C@H](CCC(N)=O)NC(=O)[C@H](CCC(=O)O)NC(=O)[C@H](CCC(=O)O)NC(=O)[C@H](CC(C)C)NC(=O)[C@H](Cc1ccc(O)cc1)NC(=O)[C@H](CO)NC(=O)[C@H](CO)NC(=O)[C@@H](NC(=O)[C@H](CC(=O)O)NC(=O)[C@H](CO)NC(=O)[C@@H](NC(=O)[C@H](Cc1ccccc1)NC(=O)[C@@H](NC(=O)CNC(=O)[C@H](CCC(=O)O)NC(=O)[C@H](C)NC(=O)CCc1c[nH]cn1)[C@@H](C)O)[C@@H](C)O)C(C)C)C(=O)N[C@@H](C)C(=O)N[C@@H](Cc1c[nH]c2ccccc12)C(=O)N[C@@H](CC(C)C)C(=O)N[C@H](C(=O)N[C@@H](CCCNC(=N)N)C(=O)NCC(=O)N[C@@H](CCCNC(=N)N)C(=O)N[C@@H](CCCCNC(=O)COCCOCCNC(=O)COCCOCCNC(=O)CC[C@H](NC(=O)CCCCCCCCCCCCCCCCC(=O)O)C(=O)O)C(=O)NCC(=O)NCC(=O)N[C@@H](CO)C(=O)N[C@@H](CCCCNc1c(NCCCCCN(O)C(=O)CCC(=O)NCCCCCN(O)C(=O)CCC(=O)NCCCCCN(O)C(C)=O)c(=O)c1=O)C(=O)O)C(C)C			rat, plasma	subcutaneous, 20 nmol/kg	Tmax	8 h
COc1ncccc1-c1cnn2ccc(N3CCN(C(=O)OC(C)C)CC3)nc12	Phosphatidylinositol 4,5-bisphosphate 3-kinase catalytic subunit beta isoform (PIK3CB, Homo sapiens, UniProt P42338)	binding, competition with immobilised ligand		1 µM	remaining binding	100%
